Experimental data collected from several papers.
Protocols differ between the studies behind these lines. Numbers after ± are the reported error.
Method: steady-state kinetics
B1: tsaM1 F253S/G291W/H204M/H255G/M230N/R216A/S234V/S257H/T232I/Y220I (Comamonas testosteroni, UniProt P94679); chain MFIRNCWYVAAWDTEIPAEGLFHRTLLNEPVLLYRDTQGRVVALENRCCHRSAPLHIGRQEGDCVRCLYHGLKFNPSGACVEIPGQEQIPPKTCIKSYPVVERNRLVWIWMGDPARANPDDIVDYFWHDSPEWRMKPGYIHYQANYKLIVDNLLDFTHLAWVHPTTLGTDSAASLKPVIERDTTGTGKLTITRWYLNDDMSNLMKGVAKFEGKADAWQIIQWSPPALLRNDIGVAPTGTGAPEGRRVPEAVQSRGTHIQTPETETTSHYWFCQARNFDLDDEALTEKIYQWVVVAFEEDRTMIEAHEKILSQVPDRPMVPIAADAGLNQGRWLLDRLLKAENGGTAP
B2: FNO G29W (Thermobifida fusca, UniProt Q47RA9); chain MIMIMASKSSPHDLPDVSGLSIAVLGGTWDQGRGLARRFAMAGHEVILGSRSAERAQAVAAELGEGLPVRGMDNAGAAEAGDVVIVAVPWDGHRALLESLKDVLAGKIVVDCVNPLGFDKRGAYALPVEEGSAAEQAAAILPDSRVVAAFHHVSAVLLLDPEVEKVDLDVLVLGDDREATDVVRALAARIPGVRGVYGGRLRNAHQVEAFTANLISINRRYKAHAGIRITDI
B3: protein (Sinorhizobium meliloti, UniProt Q92WA4); chain MNYFRNDFRGTLFGTNEATDSLRRRSLQKRILVTGGAGFLGSHLCELLLGAGHEVICLDNFSTGLRRNIAPLKRFDTFRVIAHDVVEPIDLEVDEIYNLACPASPPHYQADPIQTTKTCVIGSLNLLDLAARRGARIFQASTSEIYGDPHVHPQVESYWGNVNPFGPRSCYDEGKRCAETLFFDFHKSHGVEIKIVRIFNTYGPRMRPDDGRVVSNFIVQALKGEDITIYGDGSQTRSFCFVEDLIDGFVRLMASPPSLTGPVNLGNPAEFTIGELAEEVIRLTGSRSKIVRRPLPVDDPRQRRPDISLATEELGWRPKVNLAEGLAHTIRYFDDLLSRSMRESAELV
B4: enzyme (Staphylococcus aureus, UniProt Q2FXA5); chain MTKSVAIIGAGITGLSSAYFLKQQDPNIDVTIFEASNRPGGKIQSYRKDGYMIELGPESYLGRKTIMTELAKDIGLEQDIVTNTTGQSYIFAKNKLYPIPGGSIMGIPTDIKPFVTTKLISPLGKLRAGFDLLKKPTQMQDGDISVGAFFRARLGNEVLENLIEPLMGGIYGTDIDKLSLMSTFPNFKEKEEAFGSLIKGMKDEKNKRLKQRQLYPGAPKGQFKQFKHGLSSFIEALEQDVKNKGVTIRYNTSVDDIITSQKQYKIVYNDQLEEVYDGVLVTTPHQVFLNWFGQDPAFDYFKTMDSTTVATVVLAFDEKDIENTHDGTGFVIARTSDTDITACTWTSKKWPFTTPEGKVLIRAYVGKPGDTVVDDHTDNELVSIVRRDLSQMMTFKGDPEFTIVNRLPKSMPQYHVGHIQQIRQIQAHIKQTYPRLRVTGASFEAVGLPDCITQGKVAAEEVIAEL
B5: MMP2 (Homo sapiens, UniProt P08253); chain YNFFPRKPKWDKNQITYRIIGYTPDLDPETVDDAFARAFQVWSDVTPLRFSRIHDGEADIMINFGRWEHGDGYPFDGKDGLLAHAFAPGTGVGGDSHFDDDELWTLGEGQVVRVKYGNADGEYCKFPFLFNGKEYNSCTDTGRSDGFLWCSTTYNFEKDGKYGFCPHEALFTMGGNAEGQPCKFPFRFQGTSYDSCTTEGRTDGYRWCGTTEDYDRDKKYGFCPETAMSTVGGNSEGAPCVFPFTFLGNKYESCTSAGRSDGKMWCATTANYDDDRKWGFCPDQGYSLFLVAAHEFGHAMGLEHSQDPGALMAPIYTYTKNFRLSQDDIKGIQELYGASPDIDLGTGPTPTLGPVTPEICKQDIVFDGIAQIRGEIFFFKDRFIWRTVTPRDKPMGPLLVATFWPELPEKIDAVYEAPQEEKAVFFAGNEYWIYSASTLERGYPKPLTSLGLPPDVQRVDAAFNWSKNKKTYIFAGDKFWRYNEVKKKMDPGFPKLIADAWNAIPDNLDAVVDLQGGGHSYFFKGAYYLKLENQSLKSVKFGSIKSDWLGC
B6: protein Y93G (Thermus thermophilus, UniProt Q5SKR5); chain MSAPKPFVIGIAGGTASGKTTLAQALARTLGERVALLPMDHYYKDLGHLPLEERLRVNYDHPDAFDLALYLEHAQALLRGLPVEMPVYDFRAGTRSPRRTPVRPAPVVILEGILVLYPKELRDLMDLKVFVDADADERFIRRLKRDVLERGRSLEGVVAQYLEQVKPMHLHFVEPTKRYADVIVPRGGQNPVALEMLAAKALARLARMGAA
B7: Ma-WS/DGAT (Marinobacter nauticus); chain MTPLNPTDQLFLWLEKRQQPMHVGGLQLFSFPEGAPDDYVAQLADQLRQKTEVTAPFNQRLSYRLGQPVWVEDEHLDLEHHFRFEALPTPGRIRELLSFVSAEHSHLMDRERPMWEVHLIEGLKDRQFALYTKVHHSLVDGVSAMRMATRMLSENPDEHGMPPIWDLPCLSRDRGESDGHSLWRSVTHLLGLSGRQLGTIPTVAKELLKTINQARKDPAYDSIFHAPRCMLNQKITGSRRFAAQSWCLKRIRAVCEAYGTTVNDVVTAMCAAALRTYLMNQDALPEKPLVAFVPVSLRRDDSSGGNQVGVILASLHTDVQEAGERLLKIHHGMEEAKQRYRHMSPEEIVNYTALTLAPAAFHLLTGLAPKWQTFNVVISNVPGPSRPLYWNGAKLEGMYPVSIDMDRLALNMTLTSYNDQVEFGLIGCRRTLPSLQRMLDYLEQGLAELELNAGL
B8: alanine racemase H125A (Geobacillus stearothermophilus, UniProt P10724); chain MNDFHRDTWAEVDLDAIYDNVENLRRLLPDDTHIMAVVKANAYGHGDVQVARTALEAGASRLAVAFLDEALALREKGIEAPILVLGASRPADAALAAQQRIALTVFRSDWLEEASALYSGPFPIAFHLKMDTGMGRLGVKDEEETKRIVALIERHPHFVLEGLYTHFATADEVNTDYFSYQYTRFLHMLEWLPSRPPLVHCANSAASLRFPDRTFNMVRFGIAMYGLAPSPGIKPLLPYPLKEAFSLHSRLVHVKKLQPGEKVSYGATYTAQTEEWIGTIPIGYADGWLRRLQHFHVLVDGQKAPIVGRICMDQCMIRLPGPLPVGTKVTLIGRQGDEVISIDDVARHLETINYEVPCTISYRVPRIFFRHKRIMEVRNAIGRGESSA
B9: enzyme (Mortierella alpina, UniProt U5Y3C6); chain MAPPNTIDAGLTQRHISTSAPNSAKPAFERNYQLPEFTIKEIRECIPAHCFERSGLRGLCHVAIDLTWASLLFLAATQIDKFENPLIRYLAWPVYWIMQGIVCTGVWVLAHECGHQSFSTSKTLNNTVGWILHSMLLVPYHSWRISHSKHHKATGHMTKDQVFVPKTRSQVGLPPKENAAAAVQEEDMSVHLDEEAPIVTLFWMVIQFLFGWPAYLIMNASGQDYGRWTSHFHTYSPIFEPRNFFDIIISDLGVLAALGALIYASMQLSLLTVTKYYIVPYLFVNFWLVLITFLQHTDPKLPHYREGAWNFQRGALCTVDRSFGKFLDHMFHGIVHTHVAHHLFSQMPFYHAEEATYHLKKLLGEYYVYDPSPIVVAVWRSFRECRFVEDQGDVVFFKK
B10: ycjR (Escherichia coli, UniProt P76044); chain MKIGTQNQAFFPENILEKFRYIKEMGFDGFEIDGKLLVNNIEEVKAAIKETGLPVTTACGGYDGWIGDFIEERRLNGLKQIERILEALAEVGGKGIVVPAAWGMFTFRLPPMTSPRSLDGDRKMVSDSLRVLEQVAARTGTVVYLEPLNRYQDHMINTLADARRYIVENDLKHVQIIGDFYHMNIEEDNLAQALHDNRDLLGHVHIADNHRYQPGSGTLDFHALFEQLRADNYQGYVVYEGRIRAEDPAQAYRDSLAWLRTC
B11: Mj-MAT W387F/Y85W (Methanocaldococcus jannaschii, UniProt Q58605); chain MRNIIVKKLDVEPIEERPTEIVERKGLGHPDSICDGIAESVSRALCKMYMEKFGTILHHNTDQVELVGGHAYPKFGGGVMVSPIWILLSGRATMEILDKEKNEVIKLPVGTTAVKAAKEYLKKVLRNVDVDKDVIIDCRIGQGSMDLVDVFERQKNEVPLANDTSFGVGYAPLSTTERLVLETERFLNSDELKNEIPAVGEDIKVMGLREGKKITLTIAMAVVDRYVKNIEEYKEVIEKVRKKVEDLAKKIADGYEVEIHINTADDYERESVYLTVTGTSAEMGDDGSVGRGNRVNGLITPFRPMSMEAASGKNPVNHVGKIYNILANLIANDIAKLEGVKECYVRILSQIGKPINEPKALDIEIITEDSYDIKDIEPKAKEIANKFLDNIMEVQKMIVEGKVTTF
Chain of UniProt P07379 (whole entry, looked up): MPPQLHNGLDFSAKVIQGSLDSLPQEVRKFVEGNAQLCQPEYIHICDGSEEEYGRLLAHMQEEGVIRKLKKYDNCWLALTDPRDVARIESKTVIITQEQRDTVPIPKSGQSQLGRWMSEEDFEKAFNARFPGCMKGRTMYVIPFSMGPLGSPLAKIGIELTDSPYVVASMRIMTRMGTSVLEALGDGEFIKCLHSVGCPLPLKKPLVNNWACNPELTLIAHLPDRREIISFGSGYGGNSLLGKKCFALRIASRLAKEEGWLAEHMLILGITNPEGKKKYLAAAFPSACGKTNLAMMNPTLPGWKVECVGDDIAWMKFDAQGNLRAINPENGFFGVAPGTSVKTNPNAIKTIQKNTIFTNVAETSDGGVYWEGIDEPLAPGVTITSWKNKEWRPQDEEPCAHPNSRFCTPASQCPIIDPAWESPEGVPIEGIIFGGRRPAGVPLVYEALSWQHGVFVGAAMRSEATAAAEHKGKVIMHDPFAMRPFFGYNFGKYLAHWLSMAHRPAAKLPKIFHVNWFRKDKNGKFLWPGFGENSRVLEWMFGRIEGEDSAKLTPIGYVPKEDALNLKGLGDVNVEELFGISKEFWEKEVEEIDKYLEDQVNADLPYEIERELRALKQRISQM
Chain of UniProt P19337 (whole entry, looked up): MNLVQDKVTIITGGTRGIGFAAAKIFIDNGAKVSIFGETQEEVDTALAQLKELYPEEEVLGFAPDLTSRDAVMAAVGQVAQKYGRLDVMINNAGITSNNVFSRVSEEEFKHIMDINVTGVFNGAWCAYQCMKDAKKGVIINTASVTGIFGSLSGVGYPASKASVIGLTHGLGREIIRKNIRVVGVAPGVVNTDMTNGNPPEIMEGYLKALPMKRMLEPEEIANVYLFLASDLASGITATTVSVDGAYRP
Chain of UniProt Q9STE6 (whole entry, looked up): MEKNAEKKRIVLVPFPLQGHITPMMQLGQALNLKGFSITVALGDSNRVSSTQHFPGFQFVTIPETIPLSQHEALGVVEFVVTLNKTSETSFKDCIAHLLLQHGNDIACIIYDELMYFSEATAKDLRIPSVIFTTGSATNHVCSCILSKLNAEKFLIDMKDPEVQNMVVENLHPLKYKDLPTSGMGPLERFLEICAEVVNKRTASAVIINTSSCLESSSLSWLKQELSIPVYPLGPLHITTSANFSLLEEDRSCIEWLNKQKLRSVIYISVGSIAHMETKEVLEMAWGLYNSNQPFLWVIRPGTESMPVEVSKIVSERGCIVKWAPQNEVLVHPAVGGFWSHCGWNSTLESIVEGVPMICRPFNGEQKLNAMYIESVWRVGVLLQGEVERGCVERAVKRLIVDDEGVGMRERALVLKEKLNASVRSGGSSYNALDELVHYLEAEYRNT

| Molecule | substrate | setting | kcat [s⁻¹] |
| --- | --- | --- | --- |
| B1 | COc1c(Cl)ccc(Cl)c1C(=O)O | apparent, together with: NADH 1 mM | 0.0467 ± 0.005 |
| ddh (Ureibacillus thermosphaericus, UniProt G1UII1) | O=C(O)C(=O)Cc1ccccc1 | pH 9, 30 °C, reductive amination, together with: NH4Cl 200 mM, NADPH 0.5 mM | 0.18 ± 0.02 |
| BaiA2 (Clostridium scindens, UniProt P19337) | C[C@H](CCC(=O)SCCNC(=O)CCNC(=O)[C@H](O)C(C)(C)COP(=O)(O)OP(=O)(O)OC[C@H]1O[C@@H](n2cnc3c(N)ncnc32)[C@H](O)[C@@H]1OP(=O)(O)O)[C@H]1CC[C@H]2[C@@H]3CC[C@@H]4C[C@H](O)CC[C@]4(C)[C@H]3C[C@H](O)[C@]12C | pH 8.7, 37 °C, together with: NAD+ | 0.158 |
| B2 (FNO G29W) | NC(=O)c1ccc[n+](Cc2ccccc2)c1 | pH 8, 25 °C, together with: F420H2 40 µM | 0.417 ± 0.0183 |
| B3 (protein) | O=C(O)[C@H]1O[C@H](OP(=O)(O)OP(=O)(O)OC[C@H]2O[C@@H](n3ccc(=O)[nH]c3=O)[C@H](O)[C@@H]2O)[C@H](O)[C@@H](O)[C@@H]1O | pH 7.6, 37 °C, together with: NAD+ 1 mM | 1.7 ± 0.1 |
| B4 (enzyme) | Cc1c2[nH]c(c1CCC(=O)O)Cc1[nH]c(c(CCC(=O)O)c1C)Cc1[nH]c(c(CCC(=O)O)c1C)Cc1[nH]c(c(C)c1CCC(=O)O)C2 | pH 8, 37 °C | 0.00767 ± 0.000333 |
| B5 (MMP2) | CSCC[C@H](NC(=O)CNC(=O)[C@H](CC(C)C)NC(=O)[C@@H]1CCCN1C(=O)CNC(C)=O)C(=O)N[C@@H](Cc1c[nH]cn1)C(=O)NCC(=O)N[C@@H](CCCCN)C(N)=O |  | 620 |
| B6 (protein Y93G) | Nc1ccn([C@@H]2O[C@H](CO)[C@@H](O)[C@H]2O)c(=O)n1 | pH 7.2, 25 °C, KCl 100 mM, together with: ATP 100–200 µM | 2.9 ± 0.2 |
| enzyme (Trypanosoma brucei, UniProt Q8WQX5) | O=c1ccn([C@@H]2O[C@H](COP(=O)(O)OP(=O)(O)OP(=O)(O)O)[C@@H](O)[C@H]2O)c(=O)[nH]1 | pH 8, 27 °C, apparent | 0.392 ± 0.01 |
| B7 (Ma-WS/DGAT) | CCCCCC(=O)SCCNC(=O)CCNC(=O)[C@H](O)C(C)(C)COP(=O)(O)OP(=O)(O)OC[C@H]1O[C@@H](n2cnc3c(N)ncnc32)[C@H](O)[C@@H]1OP(=O)(O)O | pH 7.5, 25 °C, NaCl 300 mM, lower limit, not saturable, apparent, together with: 1-hexanol 4 mM | > 3 |
| KPR (Staphylococcus aureus, UniProt A0A0J9X283) | CC(C)(CO)C(=O)C(=O)O | pH 7.5, 25 °C, substrate inhibition fit, together with: NADPH 50 µM | 16.6 ± 0.6 |
| B8 (alanine racemase H125A) | C[C@@H](N)C(=O)O | pH 9, room temperature, together with: NAD+ 10 mM | 440 |
| B9 (enzyme) | CCCCCCCC/C=C\CCCCCCCC(=O)SCCNC(=O)CCNC(=O)[C@H](O)C(C)(C)COP(=O)(O)OP(=O)(O)OC[C@H]1O[C@@H](n2cnc3c(N)ncnc32)[C@H](O)[C@@H]1OP(=O)(O)O | pH 7.5, 28 °C | 0.015 ± 0.000667 |
| Pck1 (Rattus norvegicus, UniProt P07379) | O=C(O)CC(=O)C(=O)O | pH 7.5, 25 °C, together with: OAA, GTP | 54 ± 0.2 |
| B10 (ycjR) | CO[C@H]1O[C@H](CO)[C@@H](O)C(=O)[C@H]1O | pH 8, 30 °C, together with: MnCl2 0.5 mM, NADH 0.3 mM | 19.2 ± 1.7 |
| B11 (Mj-MAT W387F/Y85W) | CSCC[C@H](N)C(=O)O | 55 °C, together with: ATP 2.5 mM, methionine 0.05-1 mM | 2.77 ± 0.06 |
| enzyme (Arabidopsis thaliana, UniProt Q9STE6) | O=c1ccn([C@@H]2O[C@H](CO[P@@](=O)(O)O[P@@](=O)(O)O[C@H]3O[C@H](CO)[C@@H](O)[C@H](O)[C@H]3O)[C@@H](O)[C@H]2O)c(=O)[nH]1 | pH 7.5, 25 °C | 0.0194 |

A few entries again:
| Molecule | substrate | setting | kcat [s⁻¹] |
| --- | --- | --- | --- |
| B10 (ycjR) | CO[C@H]1O[C@H](CO)[C@@H](O)C(=O)[C@H]1O | pH 8, 30 °C, together with: MnCl2 0.5 mM, NADH 0.3 mM | 19.2 ± 1.7 |
| B11 (Mj-MAT W387F/Y85W) | CSCC[C@H](N)C(=O)O | 55 °C, together with: ATP 2.5 mM, methionine 0.05-1 mM | 2.77 ± 0.06 |
| enzyme (Arabidopsis thaliana, UniProt Q9STE6) | O=c1ccn([C@@H]2O[C@H](CO[P@@](=O)(O)O[P@@](=O)(O)O[C@H]3O[C@H](CO)[C@@H](O)[C@H](O)[C@H]3O)[C@@H](O)[C@H]2O)c(=O)[nH]1 | pH 7.5, 25 °C | 0.0194 |
